Measurements from different studies.
Lines come from different studies, so protocols differ. Numbers after ± are the reported error.
Slc6a4: Sodium-dependent serotonin transporter (Slc6a4, Rattus norvegicus, UniProt P31652)
NOX5: NADPH oxidase 5 (NOX5, Homo sapiens, UniProt Q96PH1)
OPRD1: Delta-type opioid receptor (OPRD1, Homo sapiens, UniProt P41143)
Slc6a3: Sodium-dependent dopamine transporter (Slc6a3, Rattus norvegicus, UniProt P23977)
Or2c1: Or2c1 (Mus musculus, UniProt P23275)
OPRK1: Kappa-type opioid receptor (OPRK1, Homo sapiens, UniProt P41145)

The chains behind the UniProt entries cited, without tags or fusion partners. Residues count along the entry.
UniProt P31652, whole entry: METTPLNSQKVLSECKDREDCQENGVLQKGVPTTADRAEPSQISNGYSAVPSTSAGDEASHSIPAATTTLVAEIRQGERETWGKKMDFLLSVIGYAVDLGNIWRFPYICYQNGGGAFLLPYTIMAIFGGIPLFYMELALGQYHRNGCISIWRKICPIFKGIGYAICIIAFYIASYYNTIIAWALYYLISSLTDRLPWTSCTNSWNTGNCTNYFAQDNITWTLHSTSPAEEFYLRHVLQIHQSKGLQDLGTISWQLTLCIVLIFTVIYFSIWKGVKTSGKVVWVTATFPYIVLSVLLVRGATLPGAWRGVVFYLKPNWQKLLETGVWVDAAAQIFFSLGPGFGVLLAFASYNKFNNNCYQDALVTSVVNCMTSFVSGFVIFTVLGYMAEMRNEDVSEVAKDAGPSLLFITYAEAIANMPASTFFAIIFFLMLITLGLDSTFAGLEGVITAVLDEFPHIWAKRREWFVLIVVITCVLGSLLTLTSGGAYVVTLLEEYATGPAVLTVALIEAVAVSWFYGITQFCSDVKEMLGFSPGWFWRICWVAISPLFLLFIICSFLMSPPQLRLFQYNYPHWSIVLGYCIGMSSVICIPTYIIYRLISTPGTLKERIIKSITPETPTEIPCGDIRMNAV
UniProt Q96PH1, 1-719 isoform 4: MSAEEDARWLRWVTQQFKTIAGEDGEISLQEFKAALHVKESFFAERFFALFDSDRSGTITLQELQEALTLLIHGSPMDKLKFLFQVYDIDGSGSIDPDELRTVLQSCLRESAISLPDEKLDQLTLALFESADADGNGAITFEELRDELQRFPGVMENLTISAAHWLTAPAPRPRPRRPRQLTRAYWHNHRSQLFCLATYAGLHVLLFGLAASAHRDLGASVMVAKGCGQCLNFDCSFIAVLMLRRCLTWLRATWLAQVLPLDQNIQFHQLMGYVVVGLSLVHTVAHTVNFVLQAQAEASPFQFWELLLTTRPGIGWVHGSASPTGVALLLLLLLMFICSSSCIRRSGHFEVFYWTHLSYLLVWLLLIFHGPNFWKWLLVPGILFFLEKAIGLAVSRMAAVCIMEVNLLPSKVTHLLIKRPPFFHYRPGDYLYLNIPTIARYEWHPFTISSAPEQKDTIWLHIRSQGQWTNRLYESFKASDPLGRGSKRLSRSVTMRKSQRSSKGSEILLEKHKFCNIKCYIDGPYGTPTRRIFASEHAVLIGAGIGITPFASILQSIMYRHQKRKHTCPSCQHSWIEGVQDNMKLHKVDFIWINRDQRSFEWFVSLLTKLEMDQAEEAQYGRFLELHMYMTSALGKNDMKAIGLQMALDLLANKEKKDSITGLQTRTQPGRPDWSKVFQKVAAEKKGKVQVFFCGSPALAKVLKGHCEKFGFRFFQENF
UniProt P41143, whole entry: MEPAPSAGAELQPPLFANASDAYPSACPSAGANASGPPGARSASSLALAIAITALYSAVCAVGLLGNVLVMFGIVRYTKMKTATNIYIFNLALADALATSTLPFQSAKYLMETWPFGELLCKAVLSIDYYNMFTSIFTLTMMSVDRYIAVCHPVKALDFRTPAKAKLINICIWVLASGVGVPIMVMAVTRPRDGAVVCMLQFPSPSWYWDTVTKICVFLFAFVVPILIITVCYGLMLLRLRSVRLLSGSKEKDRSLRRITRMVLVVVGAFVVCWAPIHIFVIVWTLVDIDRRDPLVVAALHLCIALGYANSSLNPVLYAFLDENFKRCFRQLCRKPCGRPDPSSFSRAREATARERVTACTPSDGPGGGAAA
UniProt P23977, whole entry: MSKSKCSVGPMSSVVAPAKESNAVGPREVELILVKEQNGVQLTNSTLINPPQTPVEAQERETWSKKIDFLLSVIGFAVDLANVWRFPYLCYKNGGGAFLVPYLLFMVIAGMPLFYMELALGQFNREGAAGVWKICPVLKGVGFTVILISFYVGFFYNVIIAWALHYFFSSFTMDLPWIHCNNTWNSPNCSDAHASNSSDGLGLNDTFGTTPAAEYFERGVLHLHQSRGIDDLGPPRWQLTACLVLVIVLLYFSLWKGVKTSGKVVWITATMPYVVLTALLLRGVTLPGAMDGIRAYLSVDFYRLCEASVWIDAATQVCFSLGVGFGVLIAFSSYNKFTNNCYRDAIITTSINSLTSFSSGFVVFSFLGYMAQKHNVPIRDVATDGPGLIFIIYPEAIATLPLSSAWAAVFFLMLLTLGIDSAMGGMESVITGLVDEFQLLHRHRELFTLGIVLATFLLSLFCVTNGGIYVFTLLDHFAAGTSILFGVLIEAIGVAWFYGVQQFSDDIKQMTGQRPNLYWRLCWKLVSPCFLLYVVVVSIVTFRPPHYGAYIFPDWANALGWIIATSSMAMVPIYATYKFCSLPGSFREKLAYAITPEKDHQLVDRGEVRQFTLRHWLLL
UniProt P23275, whole entry: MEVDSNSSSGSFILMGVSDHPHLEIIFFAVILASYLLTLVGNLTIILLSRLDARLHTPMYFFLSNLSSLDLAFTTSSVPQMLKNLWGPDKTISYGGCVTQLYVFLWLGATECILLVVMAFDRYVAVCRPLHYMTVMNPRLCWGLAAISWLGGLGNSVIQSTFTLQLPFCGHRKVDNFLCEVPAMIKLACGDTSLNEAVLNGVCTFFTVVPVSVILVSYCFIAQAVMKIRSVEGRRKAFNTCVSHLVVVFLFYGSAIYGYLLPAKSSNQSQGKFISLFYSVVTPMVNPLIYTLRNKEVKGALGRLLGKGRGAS
UniProt P41145, whole entry: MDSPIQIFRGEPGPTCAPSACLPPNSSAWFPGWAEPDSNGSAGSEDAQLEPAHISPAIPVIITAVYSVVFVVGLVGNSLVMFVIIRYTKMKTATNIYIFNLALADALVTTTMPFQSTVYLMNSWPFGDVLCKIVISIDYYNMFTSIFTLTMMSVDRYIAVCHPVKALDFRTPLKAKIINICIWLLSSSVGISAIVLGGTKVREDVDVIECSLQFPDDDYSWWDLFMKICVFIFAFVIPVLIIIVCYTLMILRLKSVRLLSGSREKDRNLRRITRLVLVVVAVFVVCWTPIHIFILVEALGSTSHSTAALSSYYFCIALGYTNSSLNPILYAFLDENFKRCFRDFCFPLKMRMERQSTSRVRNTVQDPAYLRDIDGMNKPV
UniProt Q9NY57, whole entry: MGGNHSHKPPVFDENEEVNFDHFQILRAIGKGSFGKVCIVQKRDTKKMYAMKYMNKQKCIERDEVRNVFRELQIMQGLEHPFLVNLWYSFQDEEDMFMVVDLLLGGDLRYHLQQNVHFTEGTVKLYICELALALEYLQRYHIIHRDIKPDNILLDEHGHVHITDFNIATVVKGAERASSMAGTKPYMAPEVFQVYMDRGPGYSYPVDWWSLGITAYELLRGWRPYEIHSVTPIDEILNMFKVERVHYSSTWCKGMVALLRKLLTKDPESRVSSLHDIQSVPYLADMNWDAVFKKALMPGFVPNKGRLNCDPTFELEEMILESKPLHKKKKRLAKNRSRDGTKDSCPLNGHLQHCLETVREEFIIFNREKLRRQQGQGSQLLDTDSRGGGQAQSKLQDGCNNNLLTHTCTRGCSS
UniProt P35372, whole entry: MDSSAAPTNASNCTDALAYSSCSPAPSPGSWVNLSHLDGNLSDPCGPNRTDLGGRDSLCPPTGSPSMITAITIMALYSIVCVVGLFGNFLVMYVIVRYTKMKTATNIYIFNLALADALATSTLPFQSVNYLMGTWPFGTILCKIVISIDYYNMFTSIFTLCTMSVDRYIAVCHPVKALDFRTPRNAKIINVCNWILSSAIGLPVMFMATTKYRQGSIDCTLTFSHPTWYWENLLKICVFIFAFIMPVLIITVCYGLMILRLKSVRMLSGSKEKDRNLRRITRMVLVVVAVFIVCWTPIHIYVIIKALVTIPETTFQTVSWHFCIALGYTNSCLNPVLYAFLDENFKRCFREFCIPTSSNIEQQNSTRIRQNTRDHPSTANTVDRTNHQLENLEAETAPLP
UniProt P42681, whole entry: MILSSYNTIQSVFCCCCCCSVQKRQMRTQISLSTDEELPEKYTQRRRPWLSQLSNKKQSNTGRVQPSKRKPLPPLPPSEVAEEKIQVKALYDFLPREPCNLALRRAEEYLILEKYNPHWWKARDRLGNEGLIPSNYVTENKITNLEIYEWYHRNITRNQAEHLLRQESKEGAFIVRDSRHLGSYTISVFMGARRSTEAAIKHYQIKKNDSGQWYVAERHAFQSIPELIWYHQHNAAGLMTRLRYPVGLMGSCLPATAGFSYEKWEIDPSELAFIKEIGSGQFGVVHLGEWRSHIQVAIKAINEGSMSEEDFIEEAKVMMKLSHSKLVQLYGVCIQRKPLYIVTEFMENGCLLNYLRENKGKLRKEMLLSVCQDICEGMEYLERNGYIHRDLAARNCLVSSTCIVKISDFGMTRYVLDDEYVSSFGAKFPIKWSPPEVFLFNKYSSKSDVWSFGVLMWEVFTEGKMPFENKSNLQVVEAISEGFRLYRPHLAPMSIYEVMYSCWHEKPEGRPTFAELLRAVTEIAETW
UniProt P08690, whole entry, looked up: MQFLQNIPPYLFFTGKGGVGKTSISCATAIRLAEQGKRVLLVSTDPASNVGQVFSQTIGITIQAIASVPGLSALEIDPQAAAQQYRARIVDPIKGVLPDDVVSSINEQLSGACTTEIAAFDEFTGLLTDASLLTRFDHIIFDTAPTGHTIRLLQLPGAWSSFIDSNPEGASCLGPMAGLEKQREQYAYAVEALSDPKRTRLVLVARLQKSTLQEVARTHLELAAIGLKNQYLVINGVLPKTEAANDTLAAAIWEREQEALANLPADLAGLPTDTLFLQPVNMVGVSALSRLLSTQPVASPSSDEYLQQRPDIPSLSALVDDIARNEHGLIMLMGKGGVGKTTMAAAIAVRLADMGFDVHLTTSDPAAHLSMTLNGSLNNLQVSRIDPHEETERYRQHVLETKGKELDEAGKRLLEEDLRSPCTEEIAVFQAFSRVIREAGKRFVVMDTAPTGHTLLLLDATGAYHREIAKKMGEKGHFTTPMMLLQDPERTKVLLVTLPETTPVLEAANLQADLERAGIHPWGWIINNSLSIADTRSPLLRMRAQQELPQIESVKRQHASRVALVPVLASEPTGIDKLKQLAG
UniProt Q9GZN0, whole entry: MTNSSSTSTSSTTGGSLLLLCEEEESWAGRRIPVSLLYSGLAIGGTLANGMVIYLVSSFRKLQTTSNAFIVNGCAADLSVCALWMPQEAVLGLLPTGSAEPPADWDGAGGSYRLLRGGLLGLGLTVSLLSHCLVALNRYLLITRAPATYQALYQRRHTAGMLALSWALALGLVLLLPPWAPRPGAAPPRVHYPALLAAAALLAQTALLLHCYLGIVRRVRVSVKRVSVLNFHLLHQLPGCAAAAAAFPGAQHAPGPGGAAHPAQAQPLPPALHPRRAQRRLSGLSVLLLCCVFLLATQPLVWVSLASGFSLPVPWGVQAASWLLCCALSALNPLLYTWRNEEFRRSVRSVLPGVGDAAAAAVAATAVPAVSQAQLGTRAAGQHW
UniProt P33534, whole entry: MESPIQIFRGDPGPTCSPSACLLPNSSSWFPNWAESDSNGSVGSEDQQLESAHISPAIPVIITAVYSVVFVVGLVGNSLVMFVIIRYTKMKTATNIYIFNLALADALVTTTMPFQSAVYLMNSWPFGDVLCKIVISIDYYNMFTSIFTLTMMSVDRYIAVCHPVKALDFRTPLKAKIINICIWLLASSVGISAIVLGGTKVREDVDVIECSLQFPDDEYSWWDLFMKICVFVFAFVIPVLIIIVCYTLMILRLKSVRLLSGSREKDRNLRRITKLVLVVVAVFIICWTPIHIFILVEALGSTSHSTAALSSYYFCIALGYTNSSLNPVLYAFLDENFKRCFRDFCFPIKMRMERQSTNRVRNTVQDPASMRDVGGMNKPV

CCN1CCN(Cc2ccc(NC(=O)c3ccc(C)c(/C=C/c4cnc5[nH]ccc5c4OC)c3)cc2C(F)(F)F)CC1 — log2 fold change (STK32B (Homo sapiens, UniProt Q9NY57); inhibitor, cell-based kinome screen; human cells; 5 µM; relative to: vehicle): 0.639
CNCCc1c[nH]c2ccccc12 — EC50 (Slc6a4; serotonin release, releaser; rat brain synaptosomes): 0.0224 ± 0.0014 µM
Cc1ccc2oc(Sc3ncnc4c3nnn4Cc3ccccc3)nc2c1 — EC50 (NOX5; enzyme activity, Amplex Red; NOX5-overexpressing cells): 2.7 ± 0.8 µM
CO[C@]12C=C[C@@]3(C[C@@H]1[C@H](O)c1ccccc1)[C@H]1Cc4ccc(O)c5c4[C@@]3(CCN1CC1CC1)[C@H]2O5 — EC50 (OPRM1 (Homo sapiens, UniProt P35372); G-protein activation, agonist; relative to: DAMGO): 0.00275 ± 0.00105 µM
Cc1cccc2oc(Sc3ncnc4c3nnn4Cc3ccccc3)nc12 — EC50 (NOX5; enzyme activity, Amplex Red; NOX5-overexpressing cells): 2.6 ± 1 µM
Cc1ccc2c(CCN)c[nH]c2c1 — EC50 (Slc6a4; serotonin release, releaser; rat brain synaptosomes): 0.0516 ± 0.0058 µM
CC#C/C(=N\OC[C@H]1COCCN1)c1ccc2ncnc(Nc3ccc(OCc4cccc(F)c4)c(Cl)c3)c2c1 — inhibition (TXK (Homo sapiens, UniProt P42681); kinase activity; 10 µM): 6.3%
O[As](O)O — EC50 (Arsenical pump-driving ATPase (arsA, Escherichia coli, UniProt P08690); enzyme activation, activator): 700 ± 50 µM
CC[C@](O)([C@H]1C[C@@]23CC[C@]1(OC)[C@@H]1Oc4c(O)ccc5c4[C@@]12CCN(CC1CC1)[C@@H]3C5)C(C)(C)C — EC50 (OPRD1; G-protein activation, agonist): > 10 µM
CCC[C@H](C)COc1ccc([C@@H](CO)C(=O)N[C@H](C)c2ccccc2)cc1 — EC50 (G protein-coupled receptor 88 (Homo sapiens, UniProt Q9GZN0); cAMP level, agonist, TR-FRET; CHO overexpressing G protein-coupled receptor 88; together with: forskolin 300 nM): 0.468 µM
Cc1ccc2nc(Sc3ncnc4c3nnn4Cc3ccccc3)oc2c1 — EC50 (NOX5; enzyme activity, Amplex Red; NOX5-overexpressing cells): 2.5 ± 1 µM
Cc1ccc2[nH]cc(CCN)c2c1 — EC50 (Slc6a3; dopamine release, releaser; rat brain synaptosomes): > 10 µM
FC(F)(F)c1ccc2nc(Sc3ncnc4c3nnn4Cc3ccccc3)oc2c1 — EC50 (NOX5; enzyme activity, Amplex Red; NOX5-overexpressing cells): 2 ± 0.9 µM
NCCc1c[nH]c2cccc(F)c12 — EC50 (Slc6a3; dopamine release, releaser; rat brain synaptosomes): 0.106 ± 0.005 µM
CCCCCC(C)=O — EC50 (Or2c1; ion current, agonist, two-electrode voltage clamp; Xenopus oocytes; 15 s): 4 ± 1 µM
NCCc1c[nH]c2ccccc12 — EC50 (Slc6a3; dopamine release, releaser; rat striatal synaptosomes): 0.164 ± 0.016 µM
ethoxymethyl salvinorin B — EC50 (OPRK1; agonist; human receptor): 0.0023 µM
Cc1cccc([N+](=O)[O-])c1 — EC50 (Or2c1; ion current, agonist, two-electrode voltage clamp; Xenopus oocytes; 15 s): 37 ± 13 µM
CO[C@]12CC[C@@]3(C[C@@H]1[C@@H](O)c1ccccc1)[C@H]1Cc4ccc(O)c5c4[C@@]3(CCN1CC1CC1)[C@H]2O5 — EC50 (OPRD1; G-protein activation, agonist): 0.00064 ± 0.00017 µM
methoxymethyl salvinorin B — EC50 (Oprk1 (Mus musculus, UniProt P33534); agonist; mouse receptor): 0.00081 µM
CC[C@](O)([C@H]1C[C@@]23C=C[C@]1(OC)[C@@H]1Oc4c(O)ccc5c4[C@@]12CCN(CC1CC1)[C@@H]3C5)C(C)(C)C — EC50 (OPRK1; G-protein activation, agonist): 0.122 ± 0.063 µM
NCCc1c[nH]c2ccccc12 — EC50 (Slc6a3; dopamine release, releaser; rat brain synaptosomes): < 0.165 µM
c1ccc(Cn2nnc3c(Sc4nc5ncccc5o4)ncnc32)cc1 — EC50 (NOX5; enzyme activity, Amplex Red; NOX5-overexpressing cells): > 15 µM
Cn1cc(CCN)c2ccccc21 — EC50 (Slc6a4; serotonin release, releaser; rat brain synaptosomes): 0.0531 ± 0.0049 µM
CC[C@@](O)(c1ccccc1)[C@H]1C[C@@]23CC[C@]1(OC)[C@@H]1Oc4c(O)ccc5c4[C@@]12CCN(CC1CC1)[C@@H]3C5 — EC50 (OPRD1; G-protein activation, agonist): 0.0089 ± 0.0018 µM
CN(C(=O)Cc1ccc(Cl)c(Cl)c1)[C@H](CN1CCCC1)c1ccccc1 — EC50 (OPRK1; agonist; human receptor): 0.00024 µM
COc1cccc2[nH]cc(CCN)c12 — EC50 (Slc6a3; dopamine release, releaser; rat brain synaptosomes): > 10 µM
CC(C)c1ccc2nc(Sc3ncnc4c3nnn4Cc3ccccc3)oc2c1 — EC50 (NOX5; enzyme activity, Amplex Red; NOX5-overexpressing cells): 0.86 ± 0.3 µM
Cc1cccc2c(CCN)c[nH]c12 — EC50 (Slc6a3; dopamine release, releaser; rat brain synaptosomes): 3.38 ± 0.22 µM
CC[C@@](O)(c1ccccc1)[C@H]1C[C@@]23C=C[C@]1(OC)[C@@H]1Oc4c(O)ccc5c4[C@@]12CCN(CC1CC1)[C@@H]3C5 — EC50 (OPRD1; G-protein activation, agonist): 0.0102 ± 0.0024 µM
CN(C(=O)Cc1cccc2occc12)[C@H]1CC[C@@]2(CCCO2)C[C@@H]1N1CCCC1 — EC50 (OPRK1; receptor internalization, agonist, on-cell western; N2a; 1 h, human receptor): 0.0039 µM
CC[C@@H](N)Cc1c[nH]c2ccccc12 — EC50 (Slc6a4; serotonin release, releaser; rat brain synaptosomes): 0.0347 ± 0.0049 µM

For quick reference, copied from above:
CO[C@]12C=C[C@@]3(C[C@@H]1[C@H](O)c1ccccc1)[C@H]1Cc4ccc(O)c5c4[C@@]3(CCN1CC1CC1)[C@H]2O5 — EC50 (OPRM1 (Homo sapiens, UniProt P35372); G-protein activation, agonist; relative to: DAMGO): 0.00275 ± 0.00105 µM
Cc1ccc2[nH]cc(CCN)c2c1 — EC50 (Slc6a3; dopamine release, releaser; rat brain synaptosomes): > 10 µM
